Experimental data of several laboratories.
Each numbered part is a random draw from the data of one study; scales do not carry over between parts.

Set 1
Target: RING finger protein unkempt homolog, zinc fingers 1-6, GST-SBP tag (UNK, Homo sapiens, UniProt Q9C0B0, residues 30-357)
Technique: RNA Bind-n-Seq
Molecule type: RNA
Sample: in vitro
Concentration: not given
Setting: RNA with constant flanks, human and mouse sites, ends assumed
Relative to: input RNA pool
Reading: higher = stronger binding
Shared flanks, not repeated: GGGAGUUCUACAGUCCGACGAUC … CAACAGAGGAUUGAGCAUCA
Construct (chain): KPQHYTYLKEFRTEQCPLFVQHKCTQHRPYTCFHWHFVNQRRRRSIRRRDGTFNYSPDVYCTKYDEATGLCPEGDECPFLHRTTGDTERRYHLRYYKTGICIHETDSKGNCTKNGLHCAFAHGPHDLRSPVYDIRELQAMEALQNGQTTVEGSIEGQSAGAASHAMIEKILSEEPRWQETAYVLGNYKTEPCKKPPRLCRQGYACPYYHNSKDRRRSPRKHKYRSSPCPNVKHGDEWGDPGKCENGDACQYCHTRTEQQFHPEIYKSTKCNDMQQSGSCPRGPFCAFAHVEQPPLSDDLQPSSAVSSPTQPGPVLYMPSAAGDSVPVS
Sequence | bound/input enrichment [ratio]
GGAGGCUGGGAGAUGAUCAGAAAAAUUGGAGACACAUCAGUCAGUUACAAAUAUACCUCAAGAUAUGUGCUGAAGGCUGGCCAGACUGUCACAGUGUGGGCUGCAAAUGCUGGCGUCACA | 0.35
GUGGUACAUAUUUGUCUUUUUCUUUAAAUUGUUACCUUCUGCAGAAAACAGUUUCUACUCAGUUUCAUCUAACAAUCCAGUAUUCCUGAACUUUUUGAAAUUGGUGACAAAUUUUUAUAU | 0.46
AAUCUUCAAUGAGUAGACAUAUUCCUCAGUUCUGUGGUGUUCUCGGUCACACAUUUAUGGAGUUUCUGAAGGGCAGUGGAGAUUACUGCCAGGCACAGCACGACCUCUAUGCAGACAAGU | 0.29
UGGAUCGAGGGUGAUGAACUUCACCUGGAAAUGAGAGCUGAGGGUGUGAUCUGCAAGCAAGUGUUUAAGAAAGUACACUGAGCAGCCCGAACAGCCCGAGGAGAUAACCUUGGUCUUCAG | 0.053
GUGAAAUACGCGUACUACGACACUGAACGCAUCGGAGUUGACCUGAUCAUGAAGACCUGCUUUAGCCCCAACAGAGUGAUUGGACUCUCAAGUGACUUGCAGCAAGUAGGAGGGGCAUCA | 0.109
AAGGGUCACCCUUGAGGACAAACCUCUGUGCAGGACCUUGGCCAGAGUGGGGAGGGUGGCCAGCCACUCUGAGGGACAGAACGUCCUCUUGUGUAUAAUAAACCUUUAAUUUUGGUGUUG | 0.46
AGUGGGAAUAUCACUUUUGAUGAGAUUGUCAACAUUGCUCGACAGAUGCGGCACCGAUCCUUAGCCAGAGAACUCUCUGGAACCAUUAAAGAGAUCCUGGGGACUGCCCAGUCAGUGGGC | 0.241
UCCGAACACAAAAUCUUAUUCCUUGGAGCAGGAGAGGCUGCUCUUGGAAUUGCAAAUCUUAUAGUUAUGUCUAUGGUAGAAAAUGGCCUGUCAGAACAAGAGGCACAAAAGAAAAUCUGG | 0.835
AUAGAUGAAAUUGAUGUAGAUCAGGAAGGAAUUGCAGAAAUGAUGCUGGAUGAAAAUGCUAUAGCUCAAGUUCCACGCCCUGGAACGUCUUUGAAACUCCCUGGAACUAAUCAGACAGGA | 0.483
CAAAAGCAGCUGGACUCAUCCAAUAGCACCAUCGCCAUCCUGCAAACCGAGAAAGACAAGCUGGACUUGGAAGUUACGGAUUCUAAGAAAGAACAAGAUGACCUUUUGGUGCUGUUAGCA | 0.223
AUCUCCAAGUUUAAAAAGUUUGAGGUACAGAGGGAAGGCCAGAUUUUUUUAAUGAAAUUAUAUAGAUUAGAUCUCAGUAUUUAAACUGUUCCUCAAUUUUGUGAGGCUGUGUUGGAAAUA | 2.41

Set 2
Target: RNA binding protein fox-1 homolog 2, RRM domain, GST-SBP tag (RBFOX2, Homo sapiens, UniProt O43251-10, residues 100-194)
Technique: RNA Bind-n-Seq
Molecule type: RNA
Sample: in vitro
Concentration: 365 nM
Setting: natural RNA segment, single round, ends assumed
Relative to: no-protein control
Reading: higher = stronger binding
Shared flanks, not repeated: GGGAGUUCUACAGUCCGACGAUC … UGGAAUUCUCGGGUGCCAA
Target sequence (chain): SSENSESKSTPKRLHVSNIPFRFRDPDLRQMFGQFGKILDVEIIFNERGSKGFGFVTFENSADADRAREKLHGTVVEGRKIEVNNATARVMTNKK
Sequence | RBNS enrichment (R)
AAUCUUAGGGUGUCUAUCCACGUCUGGCUGUGCCAAAUGGUCUGGCAGCUGGUUUUGGCAUCCCCAGCAUCACCACUCUCCCAACCCAUCACCGUGACUGCAGUUCCUGC | 0.228
AUUUCUUUUAUCUCCAUCUACUUUUUUAUAAACUGAUAUCUAUGUGUCAGAAAUGUACAAUUUUAGGGUAUGUUUAGAUUAAAUAUUUUUUAUUUUUAAGUUACCAGGCA | 0.948
UCCGGCAGCAGCCUUCUCUGGAGGACUGAUACACAGAAGGAAACGAAGGCGCUUGCUGUGGCCGCAGACCGUUCUCCAGGACUCUUUUUUUACCUUGAGCACUUGCCUCC | 0.548
UCAACAAAUGCUCUAACCUUCUAGAGACAAAAGUCCUAUUUCUGUUUUCUUUUGUCUUUUUAUUUUCAAUUAGUGACCCAUUGUUAAAUCCAAAUCCACUUUUACUGAAA | 0.659
GUUGCUGCGGCCCUGGGGUUUAACCUCUUCCUGCCAGGAGCGGGACUAAUGCGCCGGGAAGGCUGGGUGCGUACAAGCAAAGGGCUCCCCAUCAGUCCCGUCCGUCUGUC | 0.37
GCUCCCCUCCCCACCCUCCUCUUCUUUGCAAAACAGACCCAAGCAGGGCAGGCUCAGACCACUCGCUUCUUUCAGAUCUUUCUUGCAAUUAUGAUAACAUGAGAUUUGCU | 0.656
CGCGGCAGCUGCACGCGCUCACAGAAGGUGGAGGUUACUUGCCCAGGUACAGACGACCUCGGGGCAGUGACGAGCAAAGACCAGAGACUGCUGAGCCCUCGCAUCUGGGU | 1.23
UCACAUAUGUUGUGAAUUUUCCUUGGUUCUUUUUAAAGGAAUGAUAAUAAAGUUACUUGCUUUAGGAUUUGCUUGUUUUUCUUCCACUUCAGAAGCUUCUGAGAGGGAAU | 0.386
GUAAAGUUGUAUGUGCUGUUGUGUAAGUGUAACACUGUUUUUCUCUUGCAUGAAAUAGAUUUACUCUGCCAAUUUUAUCCAUGUUCUUGCUAAGUCUAUUGAUGAUAUGA | 3.32
UCUUGUAUUUUCUGACCACAUAAAGGCUUCUUCUCUUUGUAAUAAAGUAGAAAAGCUCUCCUCACUGAGUGUUGGCUUUGAUUUGAAAUUGUGACAUUUCUUCUUCUCCA | 0.294
CAAGUUUAUAUGUAAAGACAUAACUGCCCUUAGUCAUGAAAUUGUUGUGACCUCUACUUUUUGUCACUAAUAGCCUACAUUCAAGUGCCUGUGUUUUUUCAUCUUGUUUA | 0.71
CGUAAAGGGUGGAGGGCUUGAGGCUUAAAUAUAUGAGUAUGUUUAUACUGCUCUACUGCACUUAGACUCUCCACUCACAGAUAAGUCUUGUCUGUUAGUAGUGCUGUAGA | 0.39

Set 3
Target: Histone acetyltransferase KAT6A, winged helix 1, GST fusion (KAT6A, Homo sapiens, UniProt Q92794, residues 1-85)
Technique: protein binding microarray
Molecule type: double-stranded DNA, one strand shown
Sample: in vitro
Concentration: not given
Setting: 8-mer, flanks averaged, mean of 2 arrays, mostly near background
Relative to: not given
Reading: higher = stronger binding
Target sequence (chain): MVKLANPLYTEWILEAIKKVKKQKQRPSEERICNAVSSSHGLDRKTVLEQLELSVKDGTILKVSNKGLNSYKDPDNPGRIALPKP
Sequence | E-score
CTCCGGCA | 0.132
CAGGATCA | -0.147
AAACTCCC | 0.0749
TCTCGAAA | -0.162
GGCCGGCC | 0.354
AGGCTATA | -0.101
ATACTGAA | -0.0421
CAACGGCA | 0.271
GGGCTAAC | 0.00218
GAACAGCC | -0.0139
CGGTCACC | 0.0966
CGGAACCC | 0.265
CAGGAATA | -0.00127

Other studies, line by line
Substance | target | assay | system | setting | how to read | measurement | value
PhoQ, residues 284 288 289 292 302 303 SLSLLA | PhoP, residues 12 14 15 18 19 QWHVF (Escherichia coli, UniProt P23836) | Sort-seq, measured: YFP reporter | E. coli | PhoQ-PhoP variant library, added: 10 µM Mg2+ | relative to: high Mg2+ state, higher = stronger signaling | fold induction | 7.38

Excerpt of the above (set 1):
Sequence | bound/input enrichment [ratio]
AUCUCCAAGUUUAAAAAGUUUGAGGUACAGAGGGAAGGCCAGAUUUUUUUAAUGAAAUUAUAUAGAUUAGAUCUCAGUAUUUAAACUGUUCCUCAAUUUUGUGAGGCUGUGUUGGAAAUA | 2.41
GGAGGCUGGGAGAUGAUCAGAAAAAUUGGAGACACAUCAGUCAGUUACAAAUAUACCUCAAGAUAUGUGCUGAAGGCUGGCCAGACUGUCACAGUGUGGGCUGCAAAUGCUGGCGUCACA | 0.35
GUGAAAUACGCGUACUACGACACUGAACGCAUCGGAGUUGACCUGAUCAUGAAGACCUGCUUUAGCCCCAACAGAGUGAUUGGACUCUCAAGUGACUUGCAGCAAGUAGGAGGGGCAUCA | 0.109
